Results pooled from the literature.
Lines come from different studies, so protocols differ. ± marks the error that the study gave.

| SMILES | cell line | test | conditions | inhibition |
| --- | --- | --- | --- | --- |
| COc1ccc2c(c1)c(CC(=O)O)c(C)n2C(=O)c1ccc(Cl)cc1 | WI-38 | IL-6 release, inhibitor, ELISA | 10 µM, LPS-stimulated | 7.7% |
| CN(C)c1ccc(-c2cc3ccccc3[nH]2)cc1 | RAW264.7 | NO release, inhibitor, Griess | 50 µM, 20 h, LPS-stimulated | 28.8% |
| CO[C@@]12[C@H](COC(N)=O)C3=C(C(=O)C(C)=C(N)C3=O)N1C[C@@H]1N[C@@H]12 | U-937 | cell growth or viability, ATP luminescence | 10 µM | 100% |
| CC(C)C[C@H](NC(=O)[C@@H](O)[C@H](N)Cc1ccccc1)C(=O)O | U-937 | cell proliferation | 145 µM, day 4 | 71 ± 8.6% |
| N#Cc1c(-c2ccccc2)[nH]c2ccccc12 | RAW264.7 | NO release, inhibitor, Griess | 50 µM, 20 h, LPS-stimulated | 70.7% |
| O=[N+]([O-])c1ccc(O[C@H]2OC[C@@H](O)[C@H](O)[C@H]2O)cc1 | A375-SM | cell adhesion, inhibitor | concentration not given, together with: 33-kD fibronectin fragment | no effect |
| C[C@H]1[C@H](C)CC[C@]2(C)CC[C@]3(C)C(=CC[C@@H]4[C@@]5(C)CC[C@@H](O)[C@](C)(C(=O)O)[C@@H]5CC[C@]43C)[C@H]12 | WI-38 | IL-6 release, inhibitor, ELISA | 10 µM, LPS-stimulated | 19.8% |
| CCCCC[C@H](CC(=O)NO)C(=O)N[C@H](C(=O)N1CCC[C@H]1CO)C(C)C | U-937 | cell proliferation | 13 µM, day 4, together with: BSO 25 µM, 20 h preincubation | 48.4 ± 25.7% |
| Cc1ccc(-c2cc3ccccc3[nH]2)cc1 | RAW264.7 | NO release, inhibitor, Griess | 50 µM, 20 h, LPS-stimulated | 39% |
| C[C@@H](Oc1cc(-c2cnn(C3CCNCC3)c2)cnc1N)c1c(Cl)ccc(F)c1Cl | NCI-H2228 | cell growth or viability, MTT | 0.008 µg/mL, 72 h | 20.6% |
| Nc1ccc2[nH]c(-c3ccccc3)cc2c1 | RAW264.7 | NO release, inhibitor, Griess | 50 µM, 20 h, LPS-stimulated | 67.4% |
| CO[C@@]12[C@H](COC(N)=O)C3=C(C(=O)C(C)=C(N)C3=O)N1C[C@@H]1N[C@@H]12 | U-937 | cell growth or viability, ATP luminescence | 10 µM, 72 h | 100% |
